Earlier results as cited in several papers.
Compare with care: the assays were run in different laboratories. ± gives the spread as reported. ≈ marks a conversion by molar mass, not a printed value.
UniProt Q9HCP0, sequence (whole entry, looked up): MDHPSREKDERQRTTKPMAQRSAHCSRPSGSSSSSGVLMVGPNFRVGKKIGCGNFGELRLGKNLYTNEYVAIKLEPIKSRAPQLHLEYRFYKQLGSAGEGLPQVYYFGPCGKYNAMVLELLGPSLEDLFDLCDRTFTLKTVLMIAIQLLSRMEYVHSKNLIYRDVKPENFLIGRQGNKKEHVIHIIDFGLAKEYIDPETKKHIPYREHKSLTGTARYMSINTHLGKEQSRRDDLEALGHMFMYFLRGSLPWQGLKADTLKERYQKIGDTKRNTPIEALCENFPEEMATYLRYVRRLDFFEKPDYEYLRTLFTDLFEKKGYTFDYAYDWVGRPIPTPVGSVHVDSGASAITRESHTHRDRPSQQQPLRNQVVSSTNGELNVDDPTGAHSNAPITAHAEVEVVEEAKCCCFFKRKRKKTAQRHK

SMILES	target or system	assay	system	setting	scale	quantity	value
CCCN(CCc1cccs1)[C@H]1CCc2c(O)cccc2C1			water			solubility	< 1000 µg/mL
CC(C)Cc1ccc(C(C)C(=O)O)cc1 (stereo not drawn)			plasma			free Cmax	921 nM
CN(Cc1cnc2nc(N)nc(N)c2n1)c1ccc(C(=O)N[C@@H](CCC(=O)O)C(=O)O)cc1			water			solubility	< 1000 µg/mL
COc1ccccc1OCC(O)CN1CCN(CC(=O)Nc2c(C)cccc2C)CC1 (stereo not drawn)			human			free Cmax	2480 nM
CC(=O)S[C@@H]1CC2=CC(=O)CC[C@]2(C)[C@H]2CC[C@@]3(C)[C@@H](CC[C@@]34CCC(=O)O4)[C@H]12			FaSSIF	literature value		solubility	25 µg/mL (≈ 60 µM)
CC(=O)O[C@H]1C(=O)[C@@]2(C)[C@H]([C@H](OC(=O)c3ccccc3)[C@]3(O)C[C@H](OC(=O)[C@H](O)[C@@H](NC(=O)c4ccccc4)c4ccccc4)C(C)=C1C3(C)C)[C@]1(OC(C)=O)CO[C@@H]1C[C@@H]2O			advanced urothelial cancer patients	80 mg/m2 weekly, monotherapy		grade 4 peripheral neuropathy incidence	0%
CN[C@H]1CC[C@@H](c2ccc(Cl)c(Cl)c2)c2ccccc21			supercritical CO2			crossover pressure	170 to 195 bar
N[C@@H](CC(=O)N1CCn2c(nnc2C(F)(F)F)C1)Cc1cc(F)c(F)cc1F			healthy human	oral, time not given	relative to: dose	parent recovered in urine	> 80%
CCOC(=O)C1=C(C)NC(C)=C(C(=O)OC)C1c1cccc([N+](=O)[O-])c1 (stereo not drawn)			human			free Cmax	0.302 nM
CC(C)NCC(O)c1ccc(O)c(O)c1 (stereo not drawn)			human	concentration not given, clinical		diarrhoea incidence	0%
O=C1C[C@@H](c2ccc(O)cc2)Oc2cc(O)cc(O)c21			plasma	concentration not given, total, steady state		Cmax	7390 nM
C[Si](C)(C)O[Si](C)(C)C				25 °C		log KAW	1.98
Cc1ccc([C@@H]2O[C@H](CO)[C@@H](O)[C@H](O)[C@H]2O)cc1Cc1ccc(-c2ccc(F)cc2)s1			human, preserved kidney function	300 mg, steady state, median		tmax	1 h
Cc1cc(-c2nccc3c2ccn3CC(=O)Nc2ccc(-c3cnccn3)cn2)ccn1			rat	6 mg/kg/day, 1 month, repeat dosing		AUC(0-24 h), total	11.2 µM·h
C[Si]1(C)O[Si](C)(C)O[Si](C)(C)O[Si](C)(C)O[Si](C)(C)O1		vapour pressure over solubility		25 °C		log KAW	2.25
CC[C@@H]([C@H](C)O)n1ncn(-c2ccc(N3CCN(c4ccc(OC[C@@H]5CO[C@@](Cn6cncn6)(c6ccc(F)cc6F)C5)cc4)CC3)cc2)c1=O			plasma	prophylaxis		minimum effective plasma level	0.7 µg/mL
C[C@H]1COCCN1c1nc(-c2cnc(N)cc2C(F)F)nc(N2CCOCC2)n1	44 tumour cell lines					GI50	426 nM
CCOC(=O)C1=C(COCCN)NC(C)=C(C(=O)OC)C1c1ccccc1Cl (stereo not drawn)			supercritical CO2			crossover pressure	160 to 180 bar
Cn1c(Cn2ccc(C(F)(F)F)c(Oc3cc(Cl)cc(C#N)c3)c2=O)n[nH]c1=O			human subjects	dose not given, up to 48 weeks		Nausea incidence	10.7%
Cc1cn([C@H]2C=C[C@@H](CO)O2)c(=O)[nH]c1=O			human	40 mg		oral bioavailability	68 to 100%
N=C(N)c1ccc(OCCCCCOc2ccc(C(=N)N)cc2)cc1			human			free Cmax	455 nM

SMILES	target or system	assay	system	setting	scale	quantity	value
O=C(O)[C@H]1/C(=C/CO)O[C@@H]2CC(=O)N21			plasma	-80 °C		storage stability time	≥ 6 months
N#CCNC(=O)c1ccc(-c2ccnc(Nc3ccc(N4CCOCC4)cc3)n2)cc1		item: compound	human, urine	oral, dose not given, single dose 14C-labelled	relative to: dose	excreted dose	0.6%
COc1cnc(-n2cnc(C)n2)c2c1c(C(=O)C(=O)N1CCN(C(=O)c3ccccc3)CC1)cn2COP(=O)(O)O			healthy human volunteers, urine	oral, 300 mg single dose	relative to: dose	urinary recovery of radioactivity	~44%
CC(=O)[C@H]1CC[C@H]2[C@@H]3CC=C4C[C@@H](O)CC[C@]4(C)[C@H]3CC[C@]12C			water			solubility	< 1000 µg/mL
CC(C)N[N+]([O-])=N[O-].[Na+]				pH 7.4, 37 °C		HNO release half-life	2.3 min
CC(C)(CO)c1cc2cc(NC(=O)C3(c4ccc5c(c4)OC(F)(F)O5)CC3)c(F)cc2n1C[C@@H](O)CO			human reference individuals, plasma			fraction unbound	0.009
CC1=C(CC(=O)O)c2cc(F)ccc2/C1=C\c1ccc([S+](C)[O-])cc1 (stereo not drawn)			plasma	concentration not given, total, steady state		Cmax	29800 nM
CNC(=O)c1cc(Oc2ccc(NC(=O)Nc3ccc(Cl)c(C(F)(F)F)c3)c(F)c2)ccn1			FaSSIF	literature value		solubility	15.6 µg/mL (≈ 32.3 µM)
Nc1nc(NC2CC2)c2ncn([C@H]3C=C[C@@H](CO)C3)c2n1			human			oral bioavailability	83%
CNCC[C@@H](Oc1ccccc1C)c1ccccc1			plasma	literature data		free Cmax	55.7 nM
CNC(C)C1CCC(N)C(OC2C(N)CC(N)C(OC3OCC(C)(O)C(NC)C3O)C2O)O1 (stereo not drawn)	Klebsiella pneumoniae		clinical isolate RKI-No_393/16			MIC	≤ 0.5 µg/mL
CC(C(=O)O)c1ccc(-c2ccccc2)c(F)c1 (stereo not drawn)			water			solubility	< 1000 µg/mL
Nc1cc(C(F)(F)F)c(-c2nc(N3CCOCC3)nc(N3CCOCC3)n2)cn1	CSNK1G1 (Homo sapiens, UniProt Q9HCP0)	enzyme activity		10 µM	relative to: untreated	remaining activity	100%
CN[C@H](CC(C)C)C(=O)N[C@H]1C(=O)N[C@@H](CC(N)=O)C(=O)N[C@H]2C(=O)N[C@H]3C(=O)N[C@H](C(=O)N[C@H](C(=O)O)c4cc(O)cc(O)c4-c4cc3ccc4O)[C@H](O)c3ccc(c(Cl)c3)Oc3cc2cc(c3O[C@@H]2O[C@H](CO)[C@@H](O)[C@H](O)[C@H]2O[C@H]2C[C@](C)(N)[C@H](O)[C@H](C)O2)Oc2ccc(cc2Cl)[C@H]1O			human, plasma			fu	67%
CCN(CC)CCN(CCNCCc1ccc(O)c2[nH]c(=O)sc12)C(=O)CCOCCc1cccc2ccccc12			human, plasma	inhaled, dose not given		Clast	0.052 nM
Clc1cc2nc(c1)CNCCNCCNC2			aqueous solution	Cu(II) 1 µM, ligand 10 µM		pCu	16.2
Cn1c(=O)oc2ccc(-c3ccc(C[C@@H](C#N)NC(=O)[C@@H]4CNCCCO4)cc3)cc21			human	25 mg, phase II	relative to: placebo	dental adverse event incidence	no effect
Cc1cn([C@H]2C[C@H](N=[N+]=[N-])[C@@H](CO)O2)c(=O)[nH]c1=O			monkey	200 mg/kg		oral bioavailability	48%
CCN(CC)c1nc(N)c2c(N)nc3c(c2c1C#N)C(=O)CN3Cc1ccccc1	Plasmodium falciparum	whole cell extended time	3D7	72 h		IC50	70 nM
CC(=O)Oc1ccccc1C(=O)Nc1ncc([N+](=O)[O-])s1			plasma	concentration not given		unbound Cmax	30 nM
Cc1nn(C)cc1S(=O)(=O)NC(=O)c1ccc(-n2ccc(OCC(C)(C)C(F)(F)F)n2)nc1N1C[C@@H](C)CC1(C)C			human			fraction unbound in enterocytes	0.000775

SMILES	target or system	assay	system	setting	scale	quantity	value
Cc1c(OCC(F)(F)F)ccnc1C[S+]([O-])c1nc2ccccc2[nH]1 (stereo not drawn)			plasma	concentration not given, total, steady state		Cmax	670 nM
O=C1Nc2ccc(Cl)cc2[C@@](C#CC2CC2)(C(F)(F)F)O1			human			clearance	23 L/h
Nc1nc(Cl)nc2c1ncn2[C@H]1C[C@H](O)[C@@H](CO)O1			water			solubility	< 1000 µg/mL
COCCc1ccc(OCC(O)CNC(C)C)cc1 (stereo not drawn)			human fasted	400 mg multiple doses, day 7, mean		AUC(0-24 h)	3450 ng·h/mL
C=CC(=O)N1CCC(CNc2ncnc(N)c2-c2ccc(Oc3ccccc3)cc2)CC1			human	75 mg once daily		AUC(0-last)	325 ng·h/mL
CC1(C)S[C@@H]2[C@H](NC(=O)[C@H](N)c3ccccc3)C(=O)N2[C@H]1C(=O)O	Klebsiella pneumoniae		clinical isolate RKI-No_164/16			MIC	> 16 µg/mL
CN(C)C(=O)c1cc2cnc(Nc3ccc(N4CCNCC4)cn3)nc2n1C1CCCC1		item: asthenia	advanced solid tumour or lymphoma patients	dose not given, continuous dosing	relative to: patients	adverse event incidence	21.1%
COc1cc(N2CCC3(CCN(C)CC3)CC2)ccc1Nc1ncc(Cl)c(Nc2ccccc2P(C)(C)=O)n1			NSCLC patients	oral, 30 300 mg multiple doses		CL/F	15.8 to 27.9 L/h
CNCc1cc(-c2ccccc2F)n(S(=O)(=O)c2cccnc2)c1			human, plasma	10 mg single dose, observed clinical data		Tmax	1.5 h
COc1cc2c(Oc3ccc4[nH]c(C)cc4c3F)ccnc2cc1OCC1(N)CC1			human	16 mg single dose		half-life	97.9 ± 14.8 h
CS(=O)(=O)CCNCc1ccc(-c2ccc3ncnc(Nc4ccc(OCc5cccc(F)c5)c(Cl)c4)c3c2)o1			human, plasma	1250 mg/day, steady state		AUC(tau)	36200 ng·h/mL
N#C[C@@]1(c2ccc3c(N)ncnn23)O[C@H](CO)[C@@H](O)[C@H]1O			dog, plasma	intravenous, 2 mg/kg, 6 h, solution		plasma concentration	346 ng/mL
CN[C@@H](C)C(=O)N[C@H]1CN(S(=O)(=O)c2cccc(S(=O)(=O)N3CC[C@H]4CC[C@@H](C(=O)NC(c5ccccc5)c5ccccc5)N4C(=O)[C@@H](NC(=O)[C@H](C)NC)C3)c2)CC[C@H]2CC[C@@H](C(=O)NC(c3ccccc3)c3ccccc3)N2C1=O			rat		relative to: 7 consecutive doses over single dose	AUC(0-t) ratio	1.6
Oc1ccc(C(c2ccc(O)cc2)(C(F)(F)F)C(F)(F)F)cc1			B6C3F1/N mouse, female	oral gavage, 34 mg/kg		dose-normalized Cmax	3.1 (nmol/mL)/(mmol/kg)
C[C@H]1CNC(=O)c2cnn3ccc(nc23)N[C@H](C)c2cc(F)ccc2O1			human patients	dose not given	relative to: patients	patients with dose reductions	35%
C=CCOc1ccc(-c2c(C)[nH]c(C)c(Br)c2=O)cc1	Plasmodium falciparum	whole cell extended time	3D7	72 h		IC50	280 nM
C=CC(=O)NC1CCN(c2ncc3ncnc(Nc4ccc(Oc5ccc6c(c5)ncn6C)c(C)c4)c3n2)CC1			patients, NSCLC, HER2-mutant, previously treated	120 mg once daily, treatment-related any grade		diarrhoea incidence	56%
Nc1nc(=O)n([C@@H]2CS[C@H](CO)O2)cc1F			monkey	80 mg/kg		bioavailability	58%
Cc1nc(Nc2ncc(C(=O)Nc3c(C)cccc3Cl)s2)cc(N2CCN(CCO)CC2)n1			water			solubility	< 1000 µg/mL
CNC(=O)c1c(C)oc2cc(Oc3ncnc4cc(OC)c(OC)cc34)ccc12			healthy human subjects	dose not given, added: high-fat meal		exposure change	no effect
FC(F)(F)c1ccc(CNc2ccc(Cc3c[nH]c4ncc(Cl)cc34)cn2)cn1			human, plasma	1000 mg/day, day 1, observed mean		AUC(0-6 h)	6280 ng·h/mL

Excerpt of the above:
SMILES	target or system	assay	system	setting	scale	quantity	value
Cc1nn(C)cc1S(=O)(=O)NC(=O)c1ccc(-n2ccc(OCC(C)(C)C(F)(F)F)n2)nc1N1C[C@@H](C)CC1(C)C			human			fraction unbound in enterocytes	0.000775
N#C[C@@]1(c2ccc3c(N)ncnn23)O[C@H](CO)[C@@H](O)[C@H]1O			dog, plasma	intravenous, 2 mg/kg, 6 h, solution		plasma concentration	346 ng/mL
C[C@H]1CNC(=O)c2cnn3ccc(nc23)N[C@H](C)c2cc(F)ccc2O1			human patients	dose not given	relative to: patients	patients with dose reductions	35%
Cc1c(OCC(F)(F)F)ccnc1C[S+]([O-])c1nc2ccccc2[nH]1 (stereo not drawn)			plasma	concentration not given, total, steady state		Cmax	670 nM
N[C@@H](CC(=O)N1CCn2c(nnc2C(F)(F)F)C1)Cc1cc(F)c(F)cc1F			healthy human	oral, time not given	relative to: dose	parent recovered in urine	> 80%
CC(C)(CO)c1cc2cc(NC(=O)C3(c4ccc5c(c4)OC(F)(F)O5)CC3)c(F)cc2n1C[C@@H](O)CO			human reference individuals, plasma			fraction unbound	0.009
N#CCNC(=O)c1ccc(-c2ccnc(Nc3ccc(N4CCOCC4)cc3)n2)cc1		item: compound	human, urine	oral, dose not given, single dose 14C-labelled	relative to: dose	excreted dose	0.6%
CCN(CC)CCN(CCNCCc1ccc(O)c2[nH]c(=O)sc12)C(=O)CCOCCc1cccc2ccccc12			human, plasma	inhaled, dose not given		Clast	0.052 nM
CC(=O)[C@H]1CC[C@H]2[C@@H]3CC=C4C[C@@H](O)CC[C@]4(C)[C@H]3CC[C@]12C			water			solubility	< 1000 µg/mL
CNC(=O)c1c(C)oc2cc(Oc3ncnc4cc(OC)c(OC)cc34)ccc12			healthy human subjects	dose not given, added: high-fat meal		exposure change	no effect
